{"data": "Published values of several laboratories", "organism": "Plasmodium falciparum", "note": "Compare with care: the assays were run in different laboratories. ± marks the error that the study gave."}
{"Structure (SMILES)": "CC(C)(C)NC(=O)[C@@H]1CN(Cc2cnc3occc3c2)CCN1C[C@@H](O)C[C@@H](Cc1ccccc1)C(=O)N[C@H]1c2ccccc2C[C@H]1O", "test": "parasite growth, inhibitor, SYBR Green I", "test system": "Cam3.1 R539T (MRA-1240)", "IC50": "10800 nM"}
{"Structure (SMILES)": "CN1CCN(c2ncc3nc(-c4cn(C)c5ccccc45)c(=O)n(C)c3n2)CC1", "test": "growth, SYBR Green", "test system": "FVO", "conditions": "36 h", "IC50": "33000 nM"}
{"Structure (SMILES)": "CCOC(=O)Nc1ccc(NCc2ccc(F)cc2)nc1N", "test system": "GB4", "IC50": "2510 nM"}
{"Structure (SMILES)": "CC1(C)N=C(N)N=C(N)N1c1ccc(Cl)cc1", "test": "growth, [3H]-hypoxanthine uptake", "test system": "FCR3", "conditions": "72 h", "IC50": "1200 ± 520 nM"}
{"Structure (SMILES)": "COc1cc2c(cc1O)[C@@H](Cc1ccc(O)cc1)[N+](C)(C)CC2", "test": "parasite growth, inhibitor, SYBR Green I", "test system": "Cam3.1 R539T (MRA-1240)", "IC50": "59600 nM"}
{"Structure (SMILES)": "N=C(CC(O)c1cc2c(F)cc(F)cc2c2cc(C(F)(F)F)ccc12)Nc1cccc(F)c1 (stereo not drawn)", "test": "parasite growth, HRP2 ELISA", "test system": "clinical isolates from Gabon", "conditions": "ex vivo, range over isolates", "IC50": "0.6 to 7.6 nM"}
{"Structure (SMILES)": "Ic1ccc(N2CCN(Cc3c[nH]c4ncccc34)CC2)cc1", "test": "growth, SYBR Green", "test system": "FVO", "conditions": "36 h", "IC50": "31000 nM"}
{"Structure (SMILES)": "N=C(N)c1ccc(OCCCCCOc2ccc(C(=N)N)cc2)cc1", "test": "parasite growth, inhibitor, SYBR Green I", "test system": "Cam3.1 R539T (MRA-1240)", "IC50": "2.4 nM"}
{"Structure (SMILES)": "C=CC[N+](C)(C)c1ccc(CCC(=O)CCc2ccc([N+](C)(C)CC=C)cc2)cc1", "test system": "3D7", "IC50": "100 nM"}
{"Structure (SMILES)": "CC(=O)c1c(O)c(C)c(O)c2c1OC1=CC(=O)C(=C(C)NCCCC(=O)O)C(=O)C12C (stereo not drawn)", "test": "parasite growth, [3H]hypoxanthine incorporation", "test system": "K1", "conditions": "erythrocytic stages", "IC50": "12700 nM"}
{"Structure (SMILES)": "Cl.Oc1cccc2c1[nH]c1c(C3=CC4(O)CC/C=C\\CCCCN5CCC3C3(CC6/C=C\\CCCCN6C43)C5)nccc12 (single isomer, unassigned; (+))", "test system": "W2, chloroquine-resistant", "conditions": "72 h", "IC50": "0.0365 ± 0.0015 µg/mL"}
{"Structure (SMILES)": "CCC1=C(CC)/C(=C/NC2CCCCC2)N=C1c1ccc(C)[nH]1", "test": "parasite growth, ex vivo SYBR Green", "test system": "Ugandan clinical isolates", "conditions": "72 h, geometric mean", "IC50": "35.6 nM"}
{"Structure (SMILES)": "NC(N)=Nc1ccc(-c2ccc(-c3ccc(N=C(N)N)c(Cl)c3)o2)cc1Cl", "test": "parasite growth, inhibitor, SYBR Green I", "test system": "Cam3.1 R539T (MRA-1240)", "IC50": "337 nM"}
{"Structure (SMILES)": "C=CCc1ccccc1OCC(O)CNC(C)C (stereo not drawn)", "test system": "GB4", "IC50": "2000 nM"}
{"Structure (SMILES)": "Oc1ccc2c3c1O[C@H]1c4[nH]c5c(c4C[C@@]4(O)[C@@H](C2)N(CC2CC2)CC[C@]314)C[C@@]1(O)[C@H]2Cc3ccc(O)c4c3[C@@]1(CCN2CC1CC1)[C@H]5O4", "test": "growth, SYBR Green", "test system": "FVO", "conditions": "36 h", "IC50": "34000 nM"}
{"Structure (SMILES)": "C[C@@H]1CC[C@H]2[C@@H](C)C(=O)O[C@@H]3O[C@@]4(C)CC[C@@H]1[C@]32OO4", "test": "parasite growth, SYBR Green I", "test system": "3D7", "IC50": "73.91 ± 0.01 nM"}
{"Structure (SMILES)": "O=C(O)c1cc(-c2ccc(Br)cc2)nc2ccc(Cl)cc12", "test": "parasite growth, inhibitor, SYBR Green I", "test system": "Cam3.1 R539T (MRA-1240)", "IC50": "> 100000 nM"}
{"Structure (SMILES)": "CN(Cc1ccco1)c1ncnc2ccc(-c3ccoc3)cc12", "test": "growth, SYBR Green", "test system": "FVO", "conditions": "36 h", "IC50": "32000 nM"}
{"Structure (SMILES)": "N=C(CC(O)c1cc2c(F)cc(F)cc2c2cc(C(F)(F)F)ccc12)Nc1ccc(Br)c(F)c1 (stereo not drawn)", "test": "parasite growth, HRP2 ELISA", "test system": "clinical isolates from Gabon", "conditions": "ex vivo, range over isolates", "IC50": "1.7 to 29.9 nM"}
{"Structure (SMILES)": "C/C(=N/NC(=O)c1cn(-c2ccccc2)nc1-c1ccc(C)cc1)c1c(O)cc(C)oc1=O", "test": "parasite growth, SYBR Green I fluorescence", "test system": "3D7", "conditions": "72 h", "IC50": "11800 nM"}
{"Structure (SMILES)": "N=C(CC(O)c1cc2c(F)cc(F)cc2c2cc(C(F)(F)F)ccc12)Nc1cc(F)c(F)c(F)c1 (stereo not drawn)", "test": "parasite growth, HRP2-ELISA", "test system": "clinical isolates from Gabon", "conditions": "ex vivo, median", "IC50": "6.4 nM"}
{"Structure (SMILES)": "Cc1ccc2c(c1C)NC(=O)[C@]21NN=C(c2ccccc2)S1", "test": "parasite growth, inhibitor, SYBR Green I", "test system": "Cam3.1 R539T (MRA-1240)", "IC50": "1190 nM"}
{"Structure (SMILES)": "O=C(CCCN1CC=C(n2c(=O)[nH]c3ccccc32)CC1)c1ccc(F)cc1", "test system": "D10", "IC50": "1580 nM"}
{"Structure (SMILES)": "COC1=CC(c2ccc[nH]2)=N/C1=C\\c1[nH]c(Cc2ccc(OC(F)(F)F)cc2)cc1Cc1ccc(OC(F)(F)F)cc1", "test": "parasite growth", "test system": "DR1, artemisinin-resistant", "conditions": "72 h, synchronized rings", "IC50": "34.8 nM"}
{"Structure (SMILES)": "COCC(=O)O[C@]1(CCN(C)CCCc2nc3ccccc3[nH]2)CCc2cc(F)ccc2[C@@H]1C(C)C", "test system": "GB4", "IC50": "398 nM"}
{"Structure (SMILES)": "O=C(O)c1cn(C2CC2)c2cc(N3CCNCC3)c(F)cc2c1=O", "test": "parasite proliferation, SYBR Green", "test system": "3D7", "conditions": "erythrocytic stage", "IC50": "8000 nM"}
{"Structure (SMILES)": "CC(C)(C)C(O)C(Oc1ccc(-c2ccccc2)cc1)n1cncn1 (stereo not drawn)", "test": "parasite growth, inhibitor, SYBR Green I", "test system": "3D7", "IC50": "22900 nM"}
{"Structure (SMILES)": "CCN(CC)CCCC(C)Nc1ccnc2cc(Cl)ccc12 (stereo not drawn)", "test": "growth, [3H]-hypoxanthine uptake", "test system": "Dd2", "conditions": "72 h", "IC50": "20 ± 1 nM"}
{"Structure (SMILES)": "CC(CN1c2ccccc2Sc2ccccc21)N(C)C (stereo not drawn)", "test system": "HB3", "IC50": "10000 nM"}
{"Structure (SMILES)": "O=C1C(O)=C([C@H]2CC[C@H](c3ccc(Cl)cc3)CC2)C(=O)c2ccccc21", "test": "growth", "test system": "C2B", "conditions": "96 h", "IC50": "13700 ± 900 nM"}
{"Structure (SMILES)": "N=C(CC(O)c1cc2c(F)cc(F)cc2c2cc(C(F)(F)F)ccc12)Nc1ccc(F)c(F)c1 (stereo not drawn)", "IC50": "15 nM"}
{"Structure (SMILES)": "CCN(CC)CCCC(C)Nc1ccnc2cc(Cl)ccc12 (stereo not drawn)", "test": "parasite growth", "test system": "K1", "conditions": "72 h", "IC50": "87.7 ± 5 nM"}
{"Structure (SMILES)": "COC(=O)c1c(-c2cc(OC)c(OC)c(OC)c2)c2ccc(OCc3ccccn3)cc2c(=O)n1-c1ccc(N)cc1", "test system": "GB4", "IC50": "2510 nM"}
{"Structure (SMILES)": "Cl.O[C@]12C=C(c3nccc4c3[nH]c3ccccc34)[C@@H]3CCN(CCCC/C=C\\CC1)C[C@@]31C[C@@H]3/C=C\\CCCCN3[C@H]12", "test system": "W2, chloroquine-resistant", "conditions": "72 h", "IC50": "0.0073 ± 0.00155 µg/mL"}
{"Structure (SMILES)": "CC(C)(C)[C@]1(O)CCN2C[C@H]3c4ccccc4CCc4cccc(c43)[C@@H]2C1", "test system": "D10", "IC50": "7940 nM"}
{"Structure (SMILES)": "N=C(N)NCCCCC(=O)Nc1cc(C(F)(F)F)cc(NC(=O)c2cc(C(=O)Nc3cc(C(F)(F)F)cc(NC(=O)CCCCNC(=N)N)c3O[C@@H]3CCNC3)ncn2)c1O[C@@H]1CCNC1", "test": "parasite growth, inhibitor, SYBR Green I", "test system": "Cam3.1 R539T (MRA-1240)", "IC50": "865 nM"}
{"note": "Repeated from above:"}
{"Structure (SMILES)": "C/C(=N/NC(=O)c1cn(-c2ccccc2)nc1-c1ccc(C)cc1)c1c(O)cc(C)oc1=O", "test": "parasite growth, SYBR Green I fluorescence", "test system": "3D7", "conditions": "72 h", "IC50": "11800 nM"}
{"Structure (SMILES)": "N=C(CC(O)c1cc2c(F)cc(F)cc2c2cc(C(F)(F)F)ccc12)Nc1ccc(F)c(F)c1 (stereo not drawn)", "IC50": "15 nM"}
{"Structure (SMILES)": "Ic1ccc(N2CCN(Cc3c[nH]c4ncccc34)CC2)cc1", "test": "growth, SYBR Green", "test system": "FVO", "conditions": "36 h", "IC50": "31000 nM"}
{"Structure (SMILES)": "Oc1ccc2c3c1O[C@H]1c4[nH]c5c(c4C[C@@]4(O)[C@@H](C2)N(CC2CC2)CC[C@]314)C[C@@]1(O)[C@H]2Cc3ccc(O)c4c3[C@@]1(CCN2CC1CC1)[C@H]5O4", "test": "growth, SYBR Green", "test system": "FVO", "conditions": "36 h", "IC50": "34000 nM"}
